# Experimental data from different studies.
# Numbered parts are unrelated; each lists some results of a single study. Substitutions count along the parent as printed.

# Sample 1
# Target: RNA binding protein fox-1 homolog 2, RRM domain, GST-SBP tag (RBFOX2, Homo sapiens, UniProt O43251-10, residues 100-194)
# Technique: RNA Bind-n-Seq
# Form: RNA
# Sample: in vitro
# Concentration: 365 nM
# Notes: natural RNA segment, single round, ends assumed
# Relative to: no-protein control
# Reading: higher = stronger binding
# Construct (chain): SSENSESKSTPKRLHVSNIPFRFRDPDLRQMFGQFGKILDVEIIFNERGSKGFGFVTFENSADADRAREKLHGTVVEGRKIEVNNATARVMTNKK
Sequence,RBNS enrichment (R)
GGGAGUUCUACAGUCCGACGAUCUGUUCCAGGGUCGGGAGUCUAGGGUUGAGCACAACAUGACGUUUAAUUUCCUUUGACUUUUGUGGCGCAUAGGAGUCCGUGUUUAUCUUCUCGAUUUUGUUCUGAGGGUUUGGAAUUCUCGGGUGCCAA,0.432
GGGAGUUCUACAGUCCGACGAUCAAAAUGUAAUAAGAAAUGCAUAUGACUAGAUAGCAAUAGUGUUUUUUUUAGAUGGUAUGCUCUUGAUUGAAAUAUAUUCUCACUUUUACCAGGUUAAACAUUUGGAAUCUUGGAAUUCUCGGGUGCCAA,0.33
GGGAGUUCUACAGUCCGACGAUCAGUCAUAAAACCAUGAGAAAUAAAUAGGAAUCAAUAGUUAGUAGUGACAUUGGUGCUCUCUAGAAAUCUCAGCAUGAGCUGCUAUAGAAUACCCUCCCAGCAACAAAACCUGGAAUUCUCGGGUGCCAA,2.01
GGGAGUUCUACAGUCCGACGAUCACGUGGGACACCAUUCAAUUGAUUGCUUUAAGGAAUUUUUAGAGACAUUAUACAGUAUCCUUUUCAGUCCUGCCAUAGAGAGGAACUAGAAUUCAGAUCUCAAUAUUAGGUGGAAUUCUCGGGUGCCAA,0.97
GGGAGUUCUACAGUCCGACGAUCGUUCUUGUCUUGAGUCGACUCAAUUUAGCCCAAGUGCUGAAACAAGAAAUGUCAUUUUUUUCAUCAAAGACACCAGGGCAGAUUUUUAAGUAAAGAAAGACAAUUGGACCUGGAAUUCUCGGGUGCCAA,0.409
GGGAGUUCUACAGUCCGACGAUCACACUUGGAUGCAGUGCGUCUGAAGUGCUAAUCAGUUGUAACAAUAGCACAAAUCGAACUUAGGAUUUGUUUCUUCUCUUCUGUGUUUCGAUUUUUGAUCAAUUCUUUAAUGGAAUUCUCGGGUGCCAA,0.29
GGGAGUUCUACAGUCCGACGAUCUGGAGAUAAACAGCUCCCAUCCCUGGGUAAUGGAUGGUAAGAUGAUGGAGAUUCCUAAGAUUGGUGGAGUUGGGCAAUGCAUAGCCAUCUGACUCCUUCAGGGUGCUCUUUGGAAUUCUCGGGUGCCAA,0.835
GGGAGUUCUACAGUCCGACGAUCGUCUUUCUUGGGCUUUUAGUUAGCUGAUGAAUGAAUACAUUAGACACUUCUGGGUUUUAGUUGGGAUUUUACAUAGCUUGCAUUUUAGUUCUUUGGUUCUUUGCUGUUUCUGGAAUUCUCGGGUGCCAA,0.928

# Sample 2
# Molecule: PhoQ, residues 284 288 289 292 302 303 ASTSDA
# Technique: Sort-seq
# Refers to: YFP reporter
# Sample: E. coli
# Notes: PhoQ-PhoP variant library
# Added: 10 µM Mg2+
# Relative to: high Mg2+ state
# Reading: higher = stronger signaling
target,fold induction
"PhoP, residues 12 14 15 18 19 STHWV (Escherichia coli, UniProt P23836)",12.6
"PhoP, residues 12 14 15 18 19 QYCSL (Escherichia coli, UniProt P23836)",9.44
"PhoP, residues 12 14 15 18 19 SHWTV (Escherichia coli, UniProt P23836)",1.96

# Sample 3
# Target: Sal-like protein 4, full length isoform A (SALL4, Homo sapiens, UniProt Q9UJQ4, residues 1-1053)
# Chain of UniProt Q9UJQ4 (whole entry, looked up): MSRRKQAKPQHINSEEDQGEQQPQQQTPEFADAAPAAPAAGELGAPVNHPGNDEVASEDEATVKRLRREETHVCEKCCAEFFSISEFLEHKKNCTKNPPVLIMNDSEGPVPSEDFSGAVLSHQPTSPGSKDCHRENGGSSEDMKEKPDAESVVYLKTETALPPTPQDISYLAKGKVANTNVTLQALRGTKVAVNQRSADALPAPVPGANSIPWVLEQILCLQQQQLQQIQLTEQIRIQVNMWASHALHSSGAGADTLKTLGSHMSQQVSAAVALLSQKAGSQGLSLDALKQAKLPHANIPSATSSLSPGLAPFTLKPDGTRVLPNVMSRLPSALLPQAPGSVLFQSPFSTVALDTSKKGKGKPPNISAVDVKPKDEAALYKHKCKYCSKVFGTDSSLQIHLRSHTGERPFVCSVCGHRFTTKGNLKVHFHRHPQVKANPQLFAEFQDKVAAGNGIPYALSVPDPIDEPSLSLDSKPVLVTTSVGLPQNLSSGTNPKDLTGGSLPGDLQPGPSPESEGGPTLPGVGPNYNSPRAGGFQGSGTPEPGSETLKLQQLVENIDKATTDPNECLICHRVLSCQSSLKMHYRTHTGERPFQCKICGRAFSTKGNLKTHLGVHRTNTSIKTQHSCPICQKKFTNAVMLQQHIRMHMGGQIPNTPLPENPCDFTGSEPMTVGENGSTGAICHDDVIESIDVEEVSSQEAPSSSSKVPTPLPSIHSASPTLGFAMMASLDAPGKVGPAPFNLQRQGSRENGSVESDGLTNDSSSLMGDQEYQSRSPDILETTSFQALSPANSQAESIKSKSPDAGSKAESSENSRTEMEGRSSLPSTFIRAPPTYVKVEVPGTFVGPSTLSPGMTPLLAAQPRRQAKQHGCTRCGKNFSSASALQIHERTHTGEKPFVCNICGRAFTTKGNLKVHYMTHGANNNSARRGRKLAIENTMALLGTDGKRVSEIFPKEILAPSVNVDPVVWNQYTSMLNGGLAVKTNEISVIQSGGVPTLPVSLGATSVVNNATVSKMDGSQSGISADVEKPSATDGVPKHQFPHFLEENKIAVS
# Technique: universal PBM
# Form: double-stranded DNA, one strand shown
# Sample: in vitro
# Concentration: 600 nM
# Notes: 8-mer, flanks averaged, mean of replicates
# Reading: higher = stronger binding
Sequence,E-score
CCGATCAA,-0.0363
ATTTTACC,0.297
ATCTAGCA,0.101
TCAAATCA,0.237
GAATGCAC,0.0595
AGTTATCC,0.0638
ATGATTTA,0.303
GTTAAAGA,0.149
AGGTGAGC,-0.155
ACGGCTAC,-0.189
GGGGATAA,0.18
CATCATTC,0.0761
ACTCTCGA,-0.0384

# Sample 4
# Target: CCNB1, cyclin fold, Cln2 fusion (human)
# Technique: yeast growth competition, sequencing
# Sample: yeast
# Notes: strong parent motif
# Relative to: not given
# Reading: higher = stronger binding
# Parent: PKN2 docking peptide (human); VSAVRKLDFSDTM
Change,normalised enrichment score
R5G,0.281
K6A,2.48
S2F,3.41
K6S,2.25
D11C,2.94
A3N,0.118
K6C,3.2
T12M,3.31
L7V,0.151
D11I,2.23
A3K,0.624
S10E,4.59

# Some of these lines once more (sample 4):
Change,normalised enrichment score
A3N,0.118
D11C,2.94
